Published values collected from several papers.
Lines come from different studies, so protocols differ. ± marks the error that the study gave.
Target: Albumin (ALB, Homo sapiens, UniProt P02768)

C#CC(=O)c1ccc(-c2c([Si](C)(C)C)c3ccccc3c3ccc4ccccc4[n+]23)cc1 — conversion (LC-MS; 16 h, pH 7.4, 25 °C, covalent modification of Cys34): 70%
O=C1c2cccc[c]2[Au-]([Cl])([Cl])[N+]1=P(c1ccccc1)(c1ccccc1)c1ccccc1 — Stern-Volmer constant (fluorescence quenching; pH 7.4, together with: HSA 10 µM): 4.58e+06 M^–1
Cc1ccc(C(C)C)cc1.[C-]#[O+].[C-]#[O+].[C-]#[O+].[Cl-].[Cl-].[Cl-].[Re+].[Ru+2].c1cnc(-c2ncccn2)nc1 — quenching rate constant (tryptophan fluorescence quenching): 5.5e+12 M⁻¹ s⁻¹
N=C(N)c1cccc(C[C@H](NS(=O)(=O)c2cccc(-c3cc(CO)ccc3Cl)c2)C(=O)N2CCC(CCNC(=O)NC3CCCCC3)CC2)c1 — warfarin displacement (binding at Sudlow site I, fluorescence; 10 µM, pH 7.4, together with: warfarin 1 µM, HSA 3.5 µM): ~10%
Cc1ccc(C(C)C)cc1.O=C(N=P12CN3CN(CN(C3)C1)C2)c1[c-]cccc1.[Cl-].[Ru+2] — Stern-Volmer constant (fluorescence quenching; pH 7.4): 38500 M⁻¹
Cc1cnc2c(c1)NC(=O)c1cccnc1N2C1CC1 — binding entropy (ITC; concentration not given): 38.3 J/(K·mol)
O=C(/C=C/c1ccc(O)c(O)c1)NCCCCCCCC[P+](c1ccccc1)(c1ccccc1)c1ccccc1 — ΔH of binding (van't Hoff analysis; concentration not given): 1.04 kcal/mol
O=S([O-])c1ccccc1N=Cc1ccccc1[O-].[Cu+2].c1c[nH]cn1 — binding constant (fluorescence quenching): 35400 M⁻¹
C#CC(=O)Nc1ccc(-c2c([Si](C)(C)C)c3ccccc3c3cc(-c4ccccc4)c4ccccc4[n+]23)cc1 — conversion (LC-MS; 16 h, pH 7.4, 25 °C, covalent modification of Cys34): 60%
O=C1Nc2cccnc2N(C2CC2)c2ncccc21 — binding stoichiometry (ITC; concentration not given, 298 K): 2.7
CCCNCC(=O)O — random coil content (circular dichroism; 0.12 mM): 34%
NC1=N[N+](=Cc2c3ccccc3cc3ccccc23)[Ga-3]23([S]1)([S]C(N)=N[N+]2=Cc1c2ccccc2cc2ccccc12)[S]C(N)=N[N+]3=Cc1c2ccccc2cc2ccccc12 — Stern-Volmer constant (fluorescence quenching; 303 K): 166000 ± 8000 M⁻¹
CCCCCCCCCCCCCCCCNC(=O)[O][Pt]([Cl])([Cl])[O]C(=O)CCC(=O)O.N.N — binding constant (Ka) (Trp214 fluorescence quenching): 1.04e+06 M⁻¹
CCCCCC(C)NCC(=O)O (stereo not shown) — midpoint concentration (binding, UV-vis absorption titration): 705 µM
Cc1c(C)c(C)[c-](C)c1C.[C-]#[O+].[C-]#[O+].[C-]#[O+].[Cl-].[Cl-].[Cl-].[Ir+3].[Re+].c1cnc(-c2ncccn2)nc1 — Stern-Volmer constant (tryptophan fluorescence quenching): 16000 M⁻¹
O=C([O-])CN1CCN(CC(=O)[O-])CCN(CC(=O)c2ccc(-c3ccc(OCC(=O)O)cc3)cc2)CCN(CC(=O)[O-])CC1.[Gd+3] — r1 relaxivity (25 °C, 60 MHz, together with: HSA 0.6 mM): 11.4 mM⁻¹ s⁻¹

A few entries again:
C#CC(=O)c1ccc(-c2c([Si](C)(C)C)c3ccccc3c3ccc4ccccc4[n+]23)cc1 — conversion (LC-MS; 16 h, pH 7.4, 25 °C, covalent modification of Cys34): 70%
Cc1ccc(C(C)C)cc1.[C-]#[O+].[C-]#[O+].[C-]#[O+].[Cl-].[Cl-].[Cl-].[Re+].[Ru+2].c1cnc(-c2ncccn2)nc1 — quenching rate constant (tryptophan fluorescence quenching): 5.5e+12 M⁻¹ s⁻¹
